{"data": "Published values from different studies", "note": "Each numbered part is a random draw from the data of one study; scales do not carry over between parts. Changes are numbered by the printed parent chain."}
{"data": "Series 1", "target": "CCND3, cyclin fold, Cln2 fusion (human)", "method": "yeast growth competition, sequencing", "matrix": "yeast", "notes": "weak parent motif", "relative to": "not given", "reading": "higher = stronger binding", "starting sequence": "PKN2 docking peptide (human); VSAVQKLDFSDTM"}
{"Substitution": "VSPVQKLDFSDTM [A3P]", "normalised enrichment score": 0.129}
{"Substitution": "VSAVQKLDFSSTM [D11S]", "normalised enrichment score": 0.142}
{"Substitution": "VSAVQHLDFSDTM [K6H]", "normalised enrichment score": 0.11}
{"Substitution": "VSAVQKLDESDTM [F9E]", "normalised enrichment score": 0.118}
{"Substitution": "VSAVQKLDFQDTM [S10Q]", "normalised enrichment score": 0.117}
{"Substitution": "VCAVQKLDFSDTM [S2C]", "normalised enrichment score": 0.147}
{"Substitution": "VSAVQKLDFSMTM [D11M]", "normalised enrichment score": 0.0925}
{"Substitution": "VSAVQKLDFSDEM [T12E]", "normalised enrichment score": 0.219}
{"Substitution": "TSAVQKLDFSDTM [V1T]", "normalised enrichment score": 0.12}
{"Substitution": "VSAVQKLDFSDNM [T12N]", "normalised enrichment score": 0.138}
{"Substitution": "VSAPQKLDFSDTM [V4P]", "normalised enrichment score": 0.0804}
{"Substitution": "VSAVQPLDFSDTM [K6P]", "normalised enrichment score": 0.0566}
{"Substitution": "VSAVQILDFSDTM [K6I]", "normalised enrichment score": 0.0748}
{"Substitution": "VSAVQKLIFSDTM [D8I]", "normalised enrichment score": 0.127}
{"Substitution": "VSAVQKLTFSDTM [D8T]", "normalised enrichment score": 0.0357}
{"Substitution": "VYAVQKLDFSDTM [S2Y]", "normalised enrichment score": 0.17}
{"Substitution": "VSAVQMLDFSDTM [K6M]", "normalised enrichment score": 0.153}
{"Substitution": "VSAVQKLDFSLTM [D11L]", "normalised enrichment score": 0.157}
{"Substitution": "VSAVQKLDFSDHM [T12H]", "normalised enrichment score": 0.156}
{"Substitution": "VSAVQKLLFSDTM [D8L]", "normalised enrichment score": 0.15}
{"Substitution": "VSAVQTLDFSDTM [K6T]", "normalised enrichment score": 0.258}
{"Substitution": "ISAVQKLDFSDTM [V1I]", "normalised enrichment score": 0.0841}
{"Substitution": "VSAVQKLDFSETM [D11E]", "normalised enrichment score": 0.107}
{"Substitution": "VSAVQKLDFSDFM [T12F]", "normalised enrichment score": 0.167}
{"Substitution": "VSAVQKLWFSDTM [D8W]", "normalised enrichment score": 0.129}
{"data": "Series 2", "target": "Histone acetyltransferase KAT6A, winged helix 1, GST fusion (KAT6A, Homo sapiens, UniProt Q92794, residues 1-85)", "method": "protein binding microarray", "molecule type": "double-stranded DNA, one strand shown", "matrix": "in vitro", "concentration": "not given", "notes": "8-mer, flanks averaged, mean of 2 arrays, mostly near background", "relative to": "not given", "reading": "higher = stronger binding", "Residues (chain)": "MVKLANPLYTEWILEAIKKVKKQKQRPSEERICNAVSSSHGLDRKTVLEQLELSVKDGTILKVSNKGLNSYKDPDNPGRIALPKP"}
{"Oligonucleotide": "AATACTAG", "E-score": -0.12}
{"Oligonucleotide": "GATCTCGC", "E-score": 0.112}
{"Oligonucleotide": "GCCAGACC", "E-score": 0.0427}
{"Oligonucleotide": "GCTCCGCA", "E-score": 0.161}
{"Oligonucleotide": "CACCTGAC", "E-score": -0.102}
{"Oligonucleotide": "CTCGCCCA", "E-score": -0.0883}
{"Oligonucleotide": "AGCCTCTA", "E-score": -0.146}
{"Oligonucleotide": "AACGATCA", "E-score": -0.221}
{"Oligonucleotide": "CCATATGC", "E-score": -0.00286}
{"Oligonucleotide": "GAGACCCA", "E-score": -0.0403}
{"Oligonucleotide": "GCAGAAAA", "E-score": -0.0932}
{"Oligonucleotide": "CCTCAAGG", "E-score": -0.236}
{"Oligonucleotide": "ATTTGTTA", "E-score": -0.0102}
{"Oligonucleotide": "TACACGCA", "E-score": 0.0539}
{"Oligonucleotide": "ATACCCAA", "E-score": -0.24}
{"Oligonucleotide": "AGCGTCGC", "E-score": 0.382}
{"Oligonucleotide": "CCGTCGCC", "E-score": 0.432}
{"Oligonucleotide": "GCGTAACC", "E-score": 0.316}
{"Oligonucleotide": "TGGCTTAA", "E-score": -0.181}
{"Oligonucleotide": "CCACTGCA", "E-score": -0.176}
{"Oligonucleotide": "AAATTCGG", "E-score": 0.0855}
{"Oligonucleotide": "ACAGTACG", "E-score": 0.0377}
{"Oligonucleotide": "AACAGACA", "E-score": -0.142}
{"Oligonucleotide": "GTACGAAA", "E-score": -0.104}
{"data": "Series 3", "target": "Ras GTPase-activating protein-binding protein 1, full length (G3BP1, Homo sapiens, UniProt Q13283)", "method": "RNA Bind-n-Seq", "molecule type": "RNA", "matrix": "in vitro", "concentration": "200 nM", "notes": "whole 134-nt RNA, ends assumed", "together with": "150 mM KCl", "relative to": "input library", "reading": "higher = stronger binding", "shared flanks, not repeated": "GGGAGUUCUACAGUCCGACGAUC … UGGAAUUCUCGGGUGUCAAGG", "chain of UniProt Q13283 (whole entry, looked up)": "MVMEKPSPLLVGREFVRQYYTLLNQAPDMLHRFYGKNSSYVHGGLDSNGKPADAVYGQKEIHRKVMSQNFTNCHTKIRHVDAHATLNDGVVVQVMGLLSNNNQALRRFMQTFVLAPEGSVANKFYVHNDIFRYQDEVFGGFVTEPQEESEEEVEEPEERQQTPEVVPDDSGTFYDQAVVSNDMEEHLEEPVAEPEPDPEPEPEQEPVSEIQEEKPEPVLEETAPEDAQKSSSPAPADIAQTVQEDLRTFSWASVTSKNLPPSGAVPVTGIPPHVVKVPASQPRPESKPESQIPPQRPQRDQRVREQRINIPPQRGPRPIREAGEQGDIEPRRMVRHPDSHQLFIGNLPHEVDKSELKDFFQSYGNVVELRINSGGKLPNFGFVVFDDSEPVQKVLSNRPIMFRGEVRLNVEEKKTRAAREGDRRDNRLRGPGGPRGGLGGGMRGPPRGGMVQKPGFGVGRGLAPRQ"}
{"Oligonucleotide": "UCCUGUGCUACACAUCGUAUGUACCGAAUCGGGGCCCCCGGCCCCCGGGGCCCCCGGGGAAAGUAUUAUGUUACGCCGUUCGGAUCUGCA", "log2 enrichment": -0.889}
{"Oligonucleotide": "CAAGUCCUGUGCUACACAUCGUAUGUACCGAAUCGGAAAGGGGAAAGGGAAAGGGGAAAGUAUUAUGUUACGCCGUUCGGAUCUGCACUU", "log2 enrichment": 0.121}
{"Oligonucleotide": "ACCAUGCAGGUGGGCAUCUUUGGGAAGUGGGGCAAGGGGGGGAUAGGGAGGGGGGUAACACUUUAAAAACAGGUGGUCCCAGGUCGUUUC", "log2 enrichment": 1.34}
{"Oligonucleotide": "GCAGGAAGUAAAAACAAAUGGAAAUGCUUGGGAUAGUGGCAGGGGUGGGGGUUGCUAAGGAAAGGGUGGGAUGGGAGUGGGUAAAGAGUU", "log2 enrichment": 0.777}
{"Oligonucleotide": "CCUCAAGUCCUGUGCUACACAUCGUAUGUACCGAAUCGGGUGGGGUGGUGGGGAAAGUAUUAUGUUACGCCGUUCGGAUCUGCACUUCCA", "log2 enrichment": 1.11}
{"Oligonucleotide": "AGUCCUGUGCUACACAUCGUAUGUACCGAAUCGGGGUGGGGUUUGGGGUUUUUGGGGAAAGUAUUAUGUUACGCCGUUCGGAUCUGCACU", "log2 enrichment": 0.785}
{"Oligonucleotide": "AAGUCCUGUGCUACACAUCGUAUGUACCGAAUCGGGGCCCCGGGCCCCGGCCCCGGGAAAGUAUUAUGUUACGCCGUUCGGAUCUGCACU", "log2 enrichment": -0.815}
{"Oligonucleotide": "UCCUCAAGUCCUGUGCUACACAUCGUAUGUACCGAAUCGGGUGGGUGGUGGAAAGUAUUAUGUUACGCCGUUCGGAUCUGCACUUCCAGC", "log2 enrichment": 0.0903}
{"Oligonucleotide": "AGUCCUGUGCUACACAUCGUAUGUACCGAAUCGGAAAAAAAGGUUUGGAAAAAAAGGAAAGUAUUAUGUUACGCCGUUCGGAUCUGCACU", "log2 enrichment": -1.77}
{"Oligonucleotide": "CUGUGCUACACAUCGUAUGUACCGAAUCGGGGAAAAAAAGGGAAAAAAAGGAAAAAAAGGGGAAAGUAUUAUGUUACGCCGUUCGGAUCU", "log2 enrichment": -0.539}
{"Oligonucleotide": "AGUCCUGUGCUACACAUCGUAUGUACCGAAUCGGGAAAAAGGGAGGGUUUUUUUGGGAAAGUAUUAUGUUACGCCGUUCGGAUCUGCACU", "log2 enrichment": 0.0745}
{"Oligonucleotide": "UCCUGUGCUACACAUCGUAUGUACCGAAUCGGCCCCCCGGCCCCCCGGGGCCCCCCGGGAAAGUAUUAUGUUACGCCGUUCGGAUCUGCA", "log2 enrichment": -0.49}
{"Oligonucleotide": "CUGUGCUACACAUCGUAUGUACCGAAUCGGGGAAAAAAAGGGGUUUUUUUGGGGAAAGGGGAAAGUAUUAUGUUACGCCGUUCGGAUCUG", "log2 enrichment": 0.042}
{"Oligonucleotide": "AGUCCUGUGCUACACAUCGUAUGUACCGAAUCGGUUUUUUUGGAAAAAGGUUUUUGGAAAGUAUUAUGUUACGCCGUUCGGAUCUGCACU", "log2 enrichment": -1.68}
{"data": "Series 4", "target": "Sal-like protein 4, full length isoform A (SALL4, Homo sapiens, UniProt Q9UJQ4, residues 1-1053)", "method": "universal PBM", "molecule type": "double-stranded DNA, one strand shown", "matrix": "in vitro", "concentration": "600 nM", "notes": "8-mer, flanks averaged, mean of replicates", "reading": "higher = stronger binding", "chain of UniProt Q9UJQ4 (whole entry, looked up)": "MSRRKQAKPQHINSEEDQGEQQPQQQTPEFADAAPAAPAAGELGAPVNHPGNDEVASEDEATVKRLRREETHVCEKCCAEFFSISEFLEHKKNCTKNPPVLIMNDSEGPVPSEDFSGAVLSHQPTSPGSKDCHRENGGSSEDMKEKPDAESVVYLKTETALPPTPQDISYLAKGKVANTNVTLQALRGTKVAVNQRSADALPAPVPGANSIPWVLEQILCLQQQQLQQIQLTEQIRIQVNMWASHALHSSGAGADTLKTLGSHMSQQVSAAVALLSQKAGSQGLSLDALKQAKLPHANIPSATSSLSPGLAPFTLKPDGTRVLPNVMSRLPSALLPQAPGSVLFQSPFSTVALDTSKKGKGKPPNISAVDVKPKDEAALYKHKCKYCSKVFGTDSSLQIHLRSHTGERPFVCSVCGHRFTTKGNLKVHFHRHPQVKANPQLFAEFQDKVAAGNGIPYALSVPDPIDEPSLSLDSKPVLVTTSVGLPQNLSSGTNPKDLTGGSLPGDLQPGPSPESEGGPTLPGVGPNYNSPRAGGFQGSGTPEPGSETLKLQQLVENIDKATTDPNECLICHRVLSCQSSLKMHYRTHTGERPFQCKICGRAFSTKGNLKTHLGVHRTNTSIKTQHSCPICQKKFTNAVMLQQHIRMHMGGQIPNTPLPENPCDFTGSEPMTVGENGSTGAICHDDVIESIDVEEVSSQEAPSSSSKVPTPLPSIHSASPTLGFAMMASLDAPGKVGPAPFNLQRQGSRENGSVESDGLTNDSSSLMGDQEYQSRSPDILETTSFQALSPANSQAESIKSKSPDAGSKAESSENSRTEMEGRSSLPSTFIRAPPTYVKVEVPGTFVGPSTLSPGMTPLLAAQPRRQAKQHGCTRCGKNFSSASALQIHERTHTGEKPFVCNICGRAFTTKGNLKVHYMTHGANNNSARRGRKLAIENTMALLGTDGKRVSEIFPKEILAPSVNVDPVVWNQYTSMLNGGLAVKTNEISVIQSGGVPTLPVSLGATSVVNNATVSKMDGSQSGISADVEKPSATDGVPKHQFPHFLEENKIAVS"}
{"Oligonucleotide": "CCTTATCA", "E-score": 0.165}
{"Oligonucleotide": "ATCAACAA", "E-score": 0.241}
{"Oligonucleotide": "ACCACAGG", "E-score": -0.068}
{"Oligonucleotide": "GCCCCGGC", "E-score": -0.335}
{"Oligonucleotide": "ACACCTGT", "E-score": -0.0576}
{"Oligonucleotide": "CCGGTTAG", "E-score": -0.252}
{"Oligonucleotide": "ACATAAAA", "E-score": 0.27}
{"Oligonucleotide": "AGTGAACG", "E-score": 0.036}
{"Oligonucleotide": "TAGGAACA", "E-score": 0.0727}
{"Oligonucleotide": "GAGAGATA", "E-score": 0.19}
{"Oligonucleotide": "AGACCCCT", "E-score": -0.229}
{"Oligonucleotide": "AAGTATGG", "E-score": 0.154}
{"Oligonucleotide": "ATAACTGC", "E-score": 0.296}
{"Oligonucleotide": "ACCTGGCT", "E-score": -0.247}
{"Oligonucleotide": "AAGCCTCG", "E-score": -0.202}
{"Oligonucleotide": "AACCCGTC", "E-score": -0.17}
{"data": "Series 5", "target": "RING finger protein unkempt homolog, zinc fingers 1-6, GST-SBP tag (UNK, Homo sapiens, UniProt Q9C0B0, residues 30-357)", "method": "RNA Bind-n-Seq", "molecule type": "RNA", "matrix": "in vitro", "concentration": "not given", "notes": "RNA with constant flanks, human-mouse chimeric sites, ends assumed", "relative to": "input RNA pool", "reading": "higher = stronger binding", "shared flanks, not repeated": "GGGAGUUCUACAGUCCGACGAUC … CAACAGAGGAUUGAGCAUCA", "chain of UniProt Q9C0B0 (30-357, looked up)": "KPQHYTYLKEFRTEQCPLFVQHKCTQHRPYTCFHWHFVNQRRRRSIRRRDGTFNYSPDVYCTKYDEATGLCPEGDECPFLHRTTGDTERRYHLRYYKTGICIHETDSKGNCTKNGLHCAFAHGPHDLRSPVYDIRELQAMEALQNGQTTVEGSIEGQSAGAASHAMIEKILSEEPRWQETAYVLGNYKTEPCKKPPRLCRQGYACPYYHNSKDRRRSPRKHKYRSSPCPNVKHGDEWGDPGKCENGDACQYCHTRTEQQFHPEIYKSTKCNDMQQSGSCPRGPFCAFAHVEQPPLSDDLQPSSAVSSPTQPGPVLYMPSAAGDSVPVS"}
{"Oligonucleotide": "UUUCUACUGCAGCAAACGAUGCUAAGAAUUAAGGAUCCUAAGAAGUCACUGGAUUUUUAUACGAGGGUUCUUGGACUGACCCUCCUGCAGAAGCUUGACUUCCCUGCUAUGAAGUUUUCG", "bound/input enrichment": "0.255 ratio"}
{"Oligonucleotide": "GAGCCCAGUCGGCAGUUUGUAAAGGACUCAAUUCGGCUGGUUAAAAGAUGCACCAAACCCGACAGAAAAGAAUUCCAGAAGAUUGCCAUGGCUACAGCUAUAGGAUUUGCUAUAAUGGGA", "bound/input enrichment": "0.396 ratio"}
{"Oligonucleotide": "GUAUACGGUUAUCGAGGAAAGGACUGUAGAGCGAAUGUAUACCUGCUUCCCACAGGGGAGAUAGUUUAUUUCAUUGCCUCAGUGGUAGUACUAUUUAAUUAUGAGGAGAGGACUCAGCGA", "bound/input enrichment": "3.12 ratio"}
{"Oligonucleotide": "UAAGUCCUGUGCCAGCACUUCGCUCAUUAUAUUUUAAAUUCUGGACCAAUAGUGUUUGUUUCCUGAUUUUUGUAUUCAAUACUUUGCCUAGUAUGUAACUCACUCUUACUGAUAAUAAAA", "bound/input enrichment": "1.54 ratio"}
{"Oligonucleotide": "CUCAUGGCUGCAGAAACAGGAAGUGGAAAAACUGGUGCUUUUAGUAUUCCCGUUAUCCAGAUAGUUUAUGAAACUCUGAAAGACCAACAGGAAGGAAAGAAAGGGAAAACAACUAUUAAA", "bound/input enrichment": "0.736 ratio"}
{"Oligonucleotide": "UACAUUUUAUUGUUGAGUUUCAUUUUCAUAUAUUCUUGUAGUGUCUGCUUGCCUGUGACUUCUGGUAAAAUAAAAUAAGCCUUUGAAUUAGCAUGCUCAUGGUAUUUAACAUUUUCUAAA", "bound/input enrichment": "0.622 ratio"}
{"Oligonucleotide": "AUGGAAAAGGAUUCUCUGCCCCGCUUUGUGCGCUCUGAAUUUUAUAAGGAGCUAAUCAAGUAGUCAUCUGGUCAGGCUUCCAAAAGUUGCCCUGUGAGUUGAGUUACAUAAUAACCCGCA", "bound/input enrichment": "0.15 ratio"}
{"Oligonucleotide": "GUCAACAGCUGCCUCAAUCCCAUUCUCUACGCCUUCCUGGAUGAGAACUUCAAGGCCUGCUUCCGCAAGUUCUGCUGUGCAUCUGCCCUGCGCCGGGACGUGCAGGUUUCUGAUCGUGUG", "bound/input enrichment": "0.337 ratio"}
{"Oligonucleotide": "CUUAAUGAUAUUUUGAGUGAAUAAAUGAAGCUAAAAUGUCUGCUUUUGGUACAACACGCAUUAAUAAAAGGUUAAGUUUUGUUUUCCACUGAAGUACGUAAUACUUACUCAGAAAAAAAC", "bound/input enrichment": "0.136 ratio"}
{"Oligonucleotide": "GAUGAUAAUCACACAAACAAGUCACUGUUACAUGACCAGAGUUGUACUUCUUUUCCUGAUUAAUAUUCUCCCUGGAACCACUAGCCAAGGGGAAUCAAGACGACAAGAACCCGGGGACUU", "bound/input enrichment": "0.194 ratio"}
{"Oligonucleotide": "CUAAUCCCCUUUACUGCUCCCCCACUUCUCAUGGUAAUGACAAAAACUUAUAUCCCCGUCCUAGCUUUCACUCAGAUGGCUUAUGGAGCCGGUUUCCUAGCUUUCUUGGGAGGGAUCAGA", "bound/input enrichment": "0.571 ratio"}
